Measurements gathered from unrelated publications.
Protocols differ between the studies behind these lines. pEC50: −log10 of the molar value.

With `CCn1cc(-c2cc(Cn3ccnc3)cc3c2CCN([C@H](c2cc(OC)ccn2)C2CC2)C3=O)c(C(F)(F)F)n1` the pEC50 was 5.06 (Ramos; cell growth, inhibitor; 120 h).
For `CC[C@@H]1C(=O)N(C)c2cnc(Nc3ccc(C(=O)NC4CCN(C)CC4)cc3OC)nc2N1C1CCCC1`, the beat amplitude was 104% (iCell Cardiomyocytes (hiPSC-derived); xCELLigence Cardio impedance; concentration not given, 2 h; baseline: control).
The GI50 of `O=C(/C=C/C=C/C=C/C1CCCCC1)NC1=C[C@@](O)(/C=C/C=C/C=C/C(=O)NC2=C(O)CCC2=O)[C@@H]2O[C@@H]2C1=O` is reported as 20.6 µM (syo1; cell growth, inhibitor, CellTiter-Glo luminescence; 78 h; baseline: day 0 cell count).
`Cn1cc(-c2ccc(-c3cncc(Cl)c3N3CCC4(CCNC4=O)CC3)cc2)cn1` — result for “fold change in expression”: 2.1 (COLO 205; microarray, item: NFE2L2; concentration not given, 2 h, gene set NRF2; baseline: untreated cells).
The maximum inhibition of `C=CC(=O)N1CCC([C@@H]2CCNc3c(C(N)=O)c(-c4ccc(Oc5ccccc5)cc4)nn32)CC1` is reported as 89.7% (Ramos; calcium flux, FLIPR; 2 h preincubation).
For `Cc1nc(NC(=O)N2CCC[C@H]2C(N)=O)sc1-c1ccnc(C(C)(C)C(F)(F)F)c1`, the Hill coefficient was 1.38 (T47D; CellTiter-Glo; 120 h).
`COc1cnc2cccc(N3CCc4c(cc(Cn5ccnc5C)cc4-c4cn(C)nc4C(F)(F)F)C3=O)c2c1` gave a pEC50 of < 4.52 (LUDLU-1; cell growth, inhibitor; 120 h).
`COC(=O)[C@]12CCC(C)(C)C[C@H]1[C@H]1C(=O)C=C3[C@@]4(C)C=C(C#N)C(=O)C(C)(C)[C@@H]4CC[C@@]3(C)[C@]1(C)CC2`: “point of departure” 0.741 µM (HepG2; high content imaging, item: nuclear size; 24 h, distribution mode 1).
`CCCCCC(=O)NCC(=O)O` — result for “z-scored log2 fold change”: -1.4 (binding, equilibrium dialysis LC-MS; 5 µM, thermostabilized A2AR-BRIL construct; baseline: no-protein control, direction not given).
The ATP level of `CN(C)C[C@@H]1CCn2cc(c3ccccc32)C2=C(C(=O)NC2=O)c2cn(c3ccccc23)CCO1` is reported as 88.7% (iCell Cardiomyocytes (hiPSC-derived); CellTiter-Glo; concentration not given, 24 h; baseline: control).
For `CCn1cc(-c2cc(Cn3ccoc3=N)cc3c2CCN([C@@H](C)c2cc(OC)ccn2)C3=O)c(C(F)(F)F)n1`, the pEC50 was 6.05 (GP2d; cell growth, inhibitor; 120 h).
`C[C@]12O[C@H](C[C@]1(O)CO)n1c3ccccc3c3c4c(c5c6ccccc6n2c5c31)CNC4=O` has an ATP level of 98.5% (iCell Cardiomyocytes (hiPSC-derived); CellTiter-Glo; concentration not given, 24 h; baseline: control).
For `N[C@@H](Cc1c[nH]c2ccccc12)C(=O)O`, “z-scored log2 fold change” read 0.635 (binding, equilibrium dialysis LC-MS; 5 µM, thermostabilized A2AR-BRIL construct; baseline: no-protein control, direction not given).
The ATP level of `COc1cc2c(N3CCN(C(=O)Nc4ccc(OC(C)C)cc4)CC3)ncnc2cc1OCCCN1CCCCC1` is reported as 102% (iCell Cardiomyocytes (hiPSC-derived); CellTiter-Glo; concentration not given, 24 h; baseline: control).
For `CCn1c(-c2nonc2N)nc2cncc(CNC3CCNCC3)c21`, “relative cell number” read 114% (SK-OV-3; ATP; 2D monolayer culture; 0.1 µM, 4 days; baseline: untreated).

For quick reference, copied from above:
For `CC[C@@H]1C(=O)N(C)c2cnc(Nc3ccc(C(=O)NC4CCN(C)CC4)cc3OC)nc2N1C1CCCC1`, the beat amplitude was 104% (iCell Cardiomyocytes (hiPSC-derived); xCELLigence Cardio impedance; concentration not given, 2 h; baseline: control).
